Measured values from different studies.
Lines come from different studies, so protocols differ. Changes are numbered by the printed parent chain.
Unk: Unk 1-810 (Mus musculus, UniProt Q8BL48)
Sequence of UniProt Q8BL48 (whole entry, looked up): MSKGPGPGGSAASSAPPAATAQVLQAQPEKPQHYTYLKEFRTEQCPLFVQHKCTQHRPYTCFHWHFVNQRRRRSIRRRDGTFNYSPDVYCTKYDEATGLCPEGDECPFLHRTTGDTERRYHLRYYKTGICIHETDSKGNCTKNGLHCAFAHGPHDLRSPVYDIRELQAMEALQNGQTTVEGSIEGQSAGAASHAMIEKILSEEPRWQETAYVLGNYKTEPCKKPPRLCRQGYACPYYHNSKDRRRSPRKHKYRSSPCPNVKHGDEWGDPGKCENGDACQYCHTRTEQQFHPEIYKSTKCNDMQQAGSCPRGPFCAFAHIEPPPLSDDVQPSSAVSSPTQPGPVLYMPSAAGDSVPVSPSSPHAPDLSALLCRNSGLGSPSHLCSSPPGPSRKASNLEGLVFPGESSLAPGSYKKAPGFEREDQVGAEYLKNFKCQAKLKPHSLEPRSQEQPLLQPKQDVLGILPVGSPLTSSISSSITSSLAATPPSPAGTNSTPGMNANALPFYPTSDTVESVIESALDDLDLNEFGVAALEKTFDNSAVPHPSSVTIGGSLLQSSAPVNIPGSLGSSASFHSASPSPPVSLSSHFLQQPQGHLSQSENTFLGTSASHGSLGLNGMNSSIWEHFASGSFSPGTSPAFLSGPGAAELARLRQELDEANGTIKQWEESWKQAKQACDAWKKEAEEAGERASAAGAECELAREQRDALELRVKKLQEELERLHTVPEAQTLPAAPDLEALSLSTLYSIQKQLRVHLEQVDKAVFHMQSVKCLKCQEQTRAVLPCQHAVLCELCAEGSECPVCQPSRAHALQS
FKBP3: FKBP3 1-74 (Homo sapiens, UniProt Q00688)
P1: ITGA2 cytoplasmic domain peptide (Homo sapiens); WKLGFFKRKYEKM
P2: SCAP (Homo sapiens); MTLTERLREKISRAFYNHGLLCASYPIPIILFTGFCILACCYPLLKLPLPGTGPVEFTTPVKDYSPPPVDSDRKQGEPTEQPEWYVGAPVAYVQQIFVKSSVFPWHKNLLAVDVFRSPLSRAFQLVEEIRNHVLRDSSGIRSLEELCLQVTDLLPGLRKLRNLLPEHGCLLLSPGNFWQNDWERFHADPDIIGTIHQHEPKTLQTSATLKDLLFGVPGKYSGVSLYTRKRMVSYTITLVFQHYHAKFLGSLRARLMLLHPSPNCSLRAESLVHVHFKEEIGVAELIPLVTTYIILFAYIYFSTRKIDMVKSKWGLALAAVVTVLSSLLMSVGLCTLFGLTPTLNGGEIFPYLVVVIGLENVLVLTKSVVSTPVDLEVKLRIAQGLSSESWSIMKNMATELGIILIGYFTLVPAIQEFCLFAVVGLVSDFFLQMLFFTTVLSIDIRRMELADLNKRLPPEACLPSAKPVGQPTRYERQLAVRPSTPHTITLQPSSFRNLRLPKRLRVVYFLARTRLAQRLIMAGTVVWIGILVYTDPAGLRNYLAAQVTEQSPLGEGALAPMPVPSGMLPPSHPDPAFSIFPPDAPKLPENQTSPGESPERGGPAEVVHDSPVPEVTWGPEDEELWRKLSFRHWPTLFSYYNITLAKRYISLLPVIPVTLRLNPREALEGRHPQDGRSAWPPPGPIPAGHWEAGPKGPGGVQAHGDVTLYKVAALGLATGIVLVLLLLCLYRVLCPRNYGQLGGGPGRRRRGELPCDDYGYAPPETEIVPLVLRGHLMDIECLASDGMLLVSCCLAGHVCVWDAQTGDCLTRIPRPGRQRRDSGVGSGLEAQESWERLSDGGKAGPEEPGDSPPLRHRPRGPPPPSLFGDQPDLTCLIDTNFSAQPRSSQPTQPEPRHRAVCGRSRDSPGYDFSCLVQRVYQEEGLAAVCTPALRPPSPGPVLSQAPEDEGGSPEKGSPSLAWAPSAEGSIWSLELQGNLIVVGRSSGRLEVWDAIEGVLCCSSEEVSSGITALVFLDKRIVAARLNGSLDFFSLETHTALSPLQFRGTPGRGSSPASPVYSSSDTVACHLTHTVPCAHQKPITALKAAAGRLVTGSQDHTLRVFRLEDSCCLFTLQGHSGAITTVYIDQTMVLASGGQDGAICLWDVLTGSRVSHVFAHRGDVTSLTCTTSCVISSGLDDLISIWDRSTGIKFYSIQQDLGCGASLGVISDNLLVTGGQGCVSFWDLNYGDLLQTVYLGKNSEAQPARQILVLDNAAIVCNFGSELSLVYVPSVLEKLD; partner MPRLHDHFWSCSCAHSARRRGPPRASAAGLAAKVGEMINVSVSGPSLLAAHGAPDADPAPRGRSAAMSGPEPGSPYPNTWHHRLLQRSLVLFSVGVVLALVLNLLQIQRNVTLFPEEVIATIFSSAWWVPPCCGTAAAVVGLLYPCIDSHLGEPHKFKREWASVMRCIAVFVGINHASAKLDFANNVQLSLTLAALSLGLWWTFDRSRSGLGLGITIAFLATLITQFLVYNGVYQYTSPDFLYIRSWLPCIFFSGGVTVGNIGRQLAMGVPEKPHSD
P3: FUS3 (Saccharomyces cerevisiae); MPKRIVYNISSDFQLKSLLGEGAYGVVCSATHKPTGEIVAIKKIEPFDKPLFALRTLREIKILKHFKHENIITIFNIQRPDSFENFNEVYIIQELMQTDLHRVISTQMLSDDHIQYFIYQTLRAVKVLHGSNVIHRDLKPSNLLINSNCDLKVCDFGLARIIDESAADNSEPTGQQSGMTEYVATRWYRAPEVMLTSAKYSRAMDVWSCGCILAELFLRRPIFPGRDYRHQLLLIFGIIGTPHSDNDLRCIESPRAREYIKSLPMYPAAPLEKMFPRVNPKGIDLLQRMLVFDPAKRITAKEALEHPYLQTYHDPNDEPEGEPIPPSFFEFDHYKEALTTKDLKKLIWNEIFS
P4: SPAST MIT domain, 112-195 (Homo sapiens); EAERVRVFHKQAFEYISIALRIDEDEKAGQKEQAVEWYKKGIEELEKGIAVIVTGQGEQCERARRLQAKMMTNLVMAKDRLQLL; partner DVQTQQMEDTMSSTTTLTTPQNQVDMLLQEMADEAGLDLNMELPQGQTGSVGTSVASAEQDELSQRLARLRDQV
Sequence of UniProt P42224 (whole entry, unmodified, looked up): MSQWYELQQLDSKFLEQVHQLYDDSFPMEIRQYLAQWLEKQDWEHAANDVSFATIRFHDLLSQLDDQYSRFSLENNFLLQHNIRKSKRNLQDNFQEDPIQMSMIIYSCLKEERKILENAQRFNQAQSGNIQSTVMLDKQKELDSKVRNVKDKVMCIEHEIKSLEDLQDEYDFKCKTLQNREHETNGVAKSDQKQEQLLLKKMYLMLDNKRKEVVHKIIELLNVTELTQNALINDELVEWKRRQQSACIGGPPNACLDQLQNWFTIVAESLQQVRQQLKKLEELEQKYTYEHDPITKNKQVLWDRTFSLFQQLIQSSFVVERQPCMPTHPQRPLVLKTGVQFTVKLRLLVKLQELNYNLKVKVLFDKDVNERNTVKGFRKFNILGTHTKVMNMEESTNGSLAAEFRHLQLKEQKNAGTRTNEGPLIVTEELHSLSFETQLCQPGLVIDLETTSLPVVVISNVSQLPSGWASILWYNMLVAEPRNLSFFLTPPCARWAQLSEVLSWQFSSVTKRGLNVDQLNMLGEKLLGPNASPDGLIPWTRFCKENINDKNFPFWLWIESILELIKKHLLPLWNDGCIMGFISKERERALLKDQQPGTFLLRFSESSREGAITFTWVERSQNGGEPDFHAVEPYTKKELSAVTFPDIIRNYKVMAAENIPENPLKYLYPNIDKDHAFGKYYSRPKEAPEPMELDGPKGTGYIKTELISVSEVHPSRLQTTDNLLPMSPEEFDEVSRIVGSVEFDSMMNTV
Sequence of UniProt Q92945 (whole entry, looked up): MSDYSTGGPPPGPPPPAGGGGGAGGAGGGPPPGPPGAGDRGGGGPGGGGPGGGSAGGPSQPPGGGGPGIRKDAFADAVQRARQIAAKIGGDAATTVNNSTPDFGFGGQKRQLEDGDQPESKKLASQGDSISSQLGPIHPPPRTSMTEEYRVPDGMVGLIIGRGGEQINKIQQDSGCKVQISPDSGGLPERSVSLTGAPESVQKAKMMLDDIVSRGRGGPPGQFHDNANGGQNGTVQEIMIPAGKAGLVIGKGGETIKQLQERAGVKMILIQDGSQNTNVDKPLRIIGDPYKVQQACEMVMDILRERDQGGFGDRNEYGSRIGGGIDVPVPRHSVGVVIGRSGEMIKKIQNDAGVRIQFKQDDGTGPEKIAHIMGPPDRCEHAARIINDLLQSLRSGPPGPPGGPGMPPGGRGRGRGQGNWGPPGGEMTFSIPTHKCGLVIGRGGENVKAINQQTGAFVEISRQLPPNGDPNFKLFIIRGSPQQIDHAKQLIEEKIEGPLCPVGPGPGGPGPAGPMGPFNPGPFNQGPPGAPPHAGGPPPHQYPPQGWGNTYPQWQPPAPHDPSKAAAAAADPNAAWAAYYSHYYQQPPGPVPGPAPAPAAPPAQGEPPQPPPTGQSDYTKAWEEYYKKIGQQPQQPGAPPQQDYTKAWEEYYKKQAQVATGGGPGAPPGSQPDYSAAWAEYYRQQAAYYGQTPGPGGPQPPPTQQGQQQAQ
Sequence of UniProt O75417 (whole entry, looked up): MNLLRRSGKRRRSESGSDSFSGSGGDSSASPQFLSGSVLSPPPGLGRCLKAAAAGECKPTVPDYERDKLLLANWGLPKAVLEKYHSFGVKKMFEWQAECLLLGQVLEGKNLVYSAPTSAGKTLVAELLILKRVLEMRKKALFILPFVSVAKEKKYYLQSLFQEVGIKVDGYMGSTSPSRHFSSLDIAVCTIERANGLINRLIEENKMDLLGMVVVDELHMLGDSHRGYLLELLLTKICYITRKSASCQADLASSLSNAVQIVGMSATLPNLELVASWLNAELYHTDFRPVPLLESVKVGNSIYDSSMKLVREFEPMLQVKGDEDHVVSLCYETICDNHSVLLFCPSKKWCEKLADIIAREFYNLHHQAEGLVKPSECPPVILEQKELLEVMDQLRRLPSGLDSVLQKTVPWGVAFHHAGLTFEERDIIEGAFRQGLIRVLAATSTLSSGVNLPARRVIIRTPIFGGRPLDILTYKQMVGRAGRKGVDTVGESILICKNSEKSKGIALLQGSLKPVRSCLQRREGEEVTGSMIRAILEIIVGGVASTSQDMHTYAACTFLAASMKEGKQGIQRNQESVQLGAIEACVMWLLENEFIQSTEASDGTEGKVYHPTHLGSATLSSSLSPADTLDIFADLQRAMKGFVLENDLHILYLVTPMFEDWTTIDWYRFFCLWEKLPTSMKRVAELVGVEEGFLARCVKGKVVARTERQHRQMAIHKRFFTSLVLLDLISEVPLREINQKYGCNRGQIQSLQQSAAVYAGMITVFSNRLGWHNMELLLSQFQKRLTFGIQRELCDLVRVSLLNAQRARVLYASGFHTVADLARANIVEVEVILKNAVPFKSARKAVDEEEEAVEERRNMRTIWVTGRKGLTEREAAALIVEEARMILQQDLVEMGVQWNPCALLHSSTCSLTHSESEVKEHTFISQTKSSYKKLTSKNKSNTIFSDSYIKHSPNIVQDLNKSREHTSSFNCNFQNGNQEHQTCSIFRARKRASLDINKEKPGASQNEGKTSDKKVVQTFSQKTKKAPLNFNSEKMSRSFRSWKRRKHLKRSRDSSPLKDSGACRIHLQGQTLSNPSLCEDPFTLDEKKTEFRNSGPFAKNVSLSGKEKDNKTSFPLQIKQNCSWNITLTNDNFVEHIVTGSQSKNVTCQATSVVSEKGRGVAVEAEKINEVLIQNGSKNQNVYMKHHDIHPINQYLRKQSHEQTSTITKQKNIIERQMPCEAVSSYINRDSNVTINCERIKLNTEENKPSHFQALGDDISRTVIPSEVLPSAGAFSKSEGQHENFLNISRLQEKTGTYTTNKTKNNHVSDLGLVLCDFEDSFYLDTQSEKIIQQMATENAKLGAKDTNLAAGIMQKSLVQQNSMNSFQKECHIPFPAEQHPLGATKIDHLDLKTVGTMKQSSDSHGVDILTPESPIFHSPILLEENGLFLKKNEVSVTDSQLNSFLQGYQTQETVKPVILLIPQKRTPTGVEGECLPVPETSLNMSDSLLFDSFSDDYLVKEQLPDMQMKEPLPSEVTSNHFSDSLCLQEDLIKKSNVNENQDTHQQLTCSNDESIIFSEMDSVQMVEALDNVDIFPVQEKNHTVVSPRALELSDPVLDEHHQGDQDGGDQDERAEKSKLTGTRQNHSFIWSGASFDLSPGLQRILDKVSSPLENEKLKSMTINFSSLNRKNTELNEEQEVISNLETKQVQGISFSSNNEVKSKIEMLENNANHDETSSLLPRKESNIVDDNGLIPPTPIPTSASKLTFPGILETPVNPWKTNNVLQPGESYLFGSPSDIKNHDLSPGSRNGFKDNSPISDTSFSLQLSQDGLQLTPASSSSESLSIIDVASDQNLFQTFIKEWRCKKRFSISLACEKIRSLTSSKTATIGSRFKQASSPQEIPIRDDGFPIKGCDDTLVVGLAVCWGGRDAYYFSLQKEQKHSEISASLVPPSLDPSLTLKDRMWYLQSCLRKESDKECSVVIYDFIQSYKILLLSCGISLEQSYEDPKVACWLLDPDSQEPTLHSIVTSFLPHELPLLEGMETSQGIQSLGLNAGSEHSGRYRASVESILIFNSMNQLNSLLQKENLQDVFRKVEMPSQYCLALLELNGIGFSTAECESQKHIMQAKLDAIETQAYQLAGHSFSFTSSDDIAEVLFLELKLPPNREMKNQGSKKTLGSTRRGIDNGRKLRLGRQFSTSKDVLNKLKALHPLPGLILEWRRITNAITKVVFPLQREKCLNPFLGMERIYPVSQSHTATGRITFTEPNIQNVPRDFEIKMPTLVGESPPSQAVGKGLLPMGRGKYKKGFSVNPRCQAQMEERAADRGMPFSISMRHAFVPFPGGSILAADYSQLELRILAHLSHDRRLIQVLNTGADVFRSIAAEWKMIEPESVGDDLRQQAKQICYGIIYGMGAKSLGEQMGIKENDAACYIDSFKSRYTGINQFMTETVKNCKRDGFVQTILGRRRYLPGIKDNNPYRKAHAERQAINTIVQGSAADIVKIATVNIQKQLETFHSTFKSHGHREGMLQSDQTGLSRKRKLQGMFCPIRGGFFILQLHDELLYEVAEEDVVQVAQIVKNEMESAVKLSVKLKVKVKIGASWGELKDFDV

`P1 W1A K2A` has a relative binding of 24 (RAB21 residues 15-225 (Homo sapiens); fluorescence polarisation; baseline: unchanged protein, higher = more binding).
For `ACUUAGAAUUAUUAAUGA (ssRNA)`, binding read “binds” (Unk; EMSA; RNA).
Under binding, `RNA 1 GGAUGCCG / RNA 2 CGGCAUCC (dsRNA 8 bp duplex)` is recorded as “binds” (FKBP3; NMR; double-stranded RNA).
For `TGTATCGTCTTG (dsDNA (Trichomonas vaginalis); 12-mer duplex)`, binding read “binds” (MYB21 40-156 (Trichomonas vaginalis, UniProt Q58HP3); NMR; double-stranded DNA, one strand shown).
`P2 V355A` has a signal of 0.35 (INSIG1 (Homo sapiens); co-IP; read off a plot, with: 25-HC; higher = more binding).
`RNA 1 GAGCCUGAGCUCAGGCUC / RNA 2 GAGCCUGAGCUCAGGCUC (dsRNA 18 bp palindromic duplex)` — result for binding: “binds” (FKBP3; NMR; double-stranded RNA).
`P1 K7A R8A` has a relative binding of 7 (RAB21 residues 15-225 (Homo sapiens); fluorescence polarisation; baseline: unchanged protein, higher = more binding).
Under binding, `GAUGGAGAUGGGCCCAUGAAUUGCCGGCCGCUUUAAUC (ssRNA)` is recorded as “no binding” (KHSRP full length assumed (Homo sapiens, UniProt Q92945); UV crosslinking; RNA).
Under binding, `DNA 1 CCAACCGACCACACCCACCACCCTACCGCCTTTTTTTTTCCCGGG / DNA 2 GGCGGTAGGGTGGTGGGTGTGGTCGGTTGG (dsDNA; 3' overhang, 30 bp duplex)` is recorded as “binds” (POLQ 1-894 (Homo sapiens, UniProt O75417); fluorescence anisotropy; double-stranded DNA; with: Mg2+ 5 mM).
`GAATAGTCTCATTAACACCGGTTCCCGGAAAGATCATCAAGAGCACACGGG (dsDNA)` — result for binding: “binds” (STAT1 132-713 A656C/N658C (Homo sapiens, UniProt P42224); EMSA; double-stranded DNA, one strand shown).
Under binding, `ACUCCCAAUUAUUAAUGA (ssRNA)` is recorded as “no binding” (Unk; EMSA; RNA).
`CTGAAGTAATACCCCAGGATGTGAACAT (dsDNA)`: binding “binds” (TFAP2A full length assumed (Homo sapiens, UniProt P05549); competitor, competition; double-stranded DNA, one strand shown; unlabeled excess).
Under binding, `RNA 1 GACGCGUC / RNA 2 GACGCGUC (dsRNA 8 bp palindromic duplex)` is recorded as “binds” (FKBP3; NMR; double-stranded RNA).
`P3 D314A D317A` gave a Kd of > 50 µM (STE7 residues 1-98 (Saccharomyces cerevisiae); GST pull-down).
For `TGCTGATTGGCCATGTGCGCTCACCCGAGGGGCGGGG (dsDNA)`, binding read “binds” (Bhlhe40 full length assumed (Mus musculus, UniProt O35185); EMSA; double-stranded DNA, one strand shown; not purified).
With `P4 H9D` the Kd was > 519 µM (CHMP1B residues 126-199 (Homo sapiens); SPR).
Under binding, `RNA 1 CUGAGCUCAG / RNA 2 CUGAGCUCAG (dsRNA 10 bp palindromic duplex)` is recorded as “binds” (FKBP3; NMR; double-stranded RNA).
The Kd of `TP53 (Homo sapiens)` is reported as 100 µM (RPA1 RPA70N (Homo sapiens, UniProt P27694); fluorescence polarisation; read off a plot).

Some of these lines once more:
For `ACUUAGAAUUAUUAAUGA (ssRNA)`, binding read “binds” (Unk; EMSA; RNA).
The Kd of `TP53 (Homo sapiens)` is reported as 100 µM (RPA1 RPA70N (Homo sapiens, UniProt P27694); fluorescence polarisation; read off a plot).
